Measurements from different studies.
A part holds a random share of what one study measured. Positions count from the first letter of the parent shown.
UniProt Q8IWQ3, sequence (whole entry, looked up): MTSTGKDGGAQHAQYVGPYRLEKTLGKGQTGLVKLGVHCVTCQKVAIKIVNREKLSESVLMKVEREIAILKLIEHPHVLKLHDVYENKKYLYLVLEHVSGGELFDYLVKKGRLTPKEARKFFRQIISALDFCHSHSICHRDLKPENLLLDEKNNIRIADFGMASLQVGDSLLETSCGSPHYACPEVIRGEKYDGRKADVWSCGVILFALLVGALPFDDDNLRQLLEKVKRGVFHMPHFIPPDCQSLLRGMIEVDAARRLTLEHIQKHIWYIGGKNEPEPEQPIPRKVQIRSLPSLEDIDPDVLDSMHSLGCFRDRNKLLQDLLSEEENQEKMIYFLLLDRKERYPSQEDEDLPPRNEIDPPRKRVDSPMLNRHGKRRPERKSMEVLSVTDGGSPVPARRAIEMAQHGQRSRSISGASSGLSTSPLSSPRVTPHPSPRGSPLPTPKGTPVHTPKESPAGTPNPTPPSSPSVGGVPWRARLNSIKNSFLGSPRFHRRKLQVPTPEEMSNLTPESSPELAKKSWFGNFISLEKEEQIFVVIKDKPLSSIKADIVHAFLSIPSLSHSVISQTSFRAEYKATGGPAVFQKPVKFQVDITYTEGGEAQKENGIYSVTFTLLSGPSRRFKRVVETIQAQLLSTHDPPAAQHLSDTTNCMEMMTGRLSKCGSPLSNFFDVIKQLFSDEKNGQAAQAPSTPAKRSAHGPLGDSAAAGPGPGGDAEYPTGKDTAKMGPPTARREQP

Study 1 — target: JUND, bZIP domain (human); technique: DHFR protein complementation; matrix: yeast; relative to: wild-type JUN-FOS pair; direction: higher = stronger binding; endpoint: binding fitness
Setting: single substitutions, most at no-binding floor
Starting sequence: JUN, bZIP domain (human); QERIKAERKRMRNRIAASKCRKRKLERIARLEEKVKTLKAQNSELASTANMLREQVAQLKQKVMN
L45K: -1.35 natural log
L45N: -1.28 natural log
R53Y: -1.3 natural log
N42V: -1.39 natural log
L45V: -1.41 natural log
L31Q: -1.31 natural log
K34G: -1.27 natural log
A46P: -1.53 natural log

Study 2 — target: CCNF, cyclin fold, Cln2 fusion (human); technique: yeast growth competition, sequencing; matrix: yeast; setting: strong parent motif; relative to: not given; direction: higher = stronger binding; endpoint: normalised enrichment score
Starting sequence: PPP1R3F docking peptide (human); VAPRRVLFADEAL
VAPRKVLLADEAL [R5K F8L]: 0.342
VAPRRALFADEAL [V6A]: 5.82
VAPRRVLFADEAA [L13A]: 7.63
VAPRRVLAADEAL [F8A]: -0.0214
VAPRRVLFAAEAL [D10A]: 6
VAPRRVLLADEAL [F8L]: 0.792
VAPARVLFADEAL [R4A]: 4.05
VAPRAVAFADEAL [R5A L7A]: -0.461

Study 3 — technique: RNA Bind-n-Seq; molecule type: RNA; matrix: in vitro; tested at: 365 nM; relative to: no-protein control; direction: higher = stronger binding; endpoint: RBNS enrichment (R)
Target: RNA binding protein fox-1 homolog 2, RRM domain, GST-SBP tag (RBFOX2, Homo sapiens, UniProt O43251-10, residues 100-194)
Setting: natural RNA segment, single round, ends assumed
Target sequence (chain): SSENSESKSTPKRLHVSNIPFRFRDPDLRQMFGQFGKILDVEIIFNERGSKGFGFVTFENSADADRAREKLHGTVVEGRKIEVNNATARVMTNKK
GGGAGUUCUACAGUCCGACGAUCAAGUGGUCACUGCAUCUAGUAAGAUUAUAUUUCCAGUACACUUCCUUAGGGCAGAAACACCAUCCUAUCAGGUUUGGUCAGUCCCUUCUUCAUGAAGGGAGUCAUGGGGAUGGAAUUCUCGGGUGCCAA: 0.349
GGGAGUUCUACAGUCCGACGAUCGCACCCGCGGGGGCCUGGGAGUCCCCAUUUGCAGGUGGGUAGGGCCUCCAGCCCACACCACCCAGACCUAGGCUUCCCUCUUCUCAGGAUCCACCACAGGGUUAGGGGACUGGAAUUCUCGGGUGCCAA: 0.478
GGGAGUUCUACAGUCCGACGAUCUGGGAUGCAGGACCCCAGCUUCCGUUCCCAAGCCCUGUUGGGAGUCCUUUCCAGUGCUUCAGGAUGCUGGGGCGACCAAAGGAGCCUUUUAAAAAAUGUUUUUAUACAAAUGGAAUUCUCGGGUGCCAA: 0.492
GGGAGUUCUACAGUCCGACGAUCAUAUUUGUACAUCUAUGCAAAAUACUUGAAUGGGCCAUGGUGCCUUGUUUUUUGUUGUUGUUGUUAUUUUUUUCUCCUUGUUUGUAUUUAAUUAAAACAAAUUGUCAUGAUGGAAUUCUCGGGUGCCAA: 1.53
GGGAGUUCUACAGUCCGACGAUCUUGUAAAACCAAUGUCUGUUUUGUUACAUACCUUUCAUGUUGUGCUUUGUAAAUGUCUUAUUUGUGUAAUAAAUAAAGUUAAUGCGAGUAGAAGUGCCGGCACUUAAACCUGGAAUUCUCGGGUGCCAA: 4.01
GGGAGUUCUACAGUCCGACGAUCGCCUCCCUACACCUCAUACCCUGCCUGCCUCCUCCAGGAGGAAUCUCCGGGGCCCCUUCCUGACUCUCCCCACCUUCGCCACUUGUCUCUAGGCUAUGGGACAAUCAUCCUGGAAUUCUCGGGUGCCAA: 1.65
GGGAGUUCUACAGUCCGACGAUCAUACACUUUUGUAAAGAAGUAUAUUUUUAUGAAAAGAAACUUUGUAAAAGUAUGAUGUAAAUUUUCAGUGCAAUGUAAACAAAAUAAAAAUGGAUAAUUGCUUUUGUAAAUGGAAUUCUCGGGUGCCAA: 0.699
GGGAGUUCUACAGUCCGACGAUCUUAGCAGGUAGAAAAUUAUUUGUAUUAUAUUCAUCUGAUUCCUAUACUGGAUGAGCAAGGAGCAUGCUUCCUUUGGGACAUUCUUACAGCAGGGUGUCUCUCCAACAGCCUGGAAUUCUCGGGUGCCAA: 0.641

Other studies, line by line
CS(=O)(=O)c1cc(C2(NC(=O)c3cncc4c3cnn4-c3ccc(F)cc3)CC2)ccn1
remaining binding (Serine/threonine-protein kinase BRSK2 (BRSK2, Homo sapiens, UniProt Q8IWQ3); cell-free assay, competition with immobilised ligand; 1 µM): 84%

For quick reference, copied from above (study 2):
VAPRAVAFADEAL [R5A L7A]: -0.461
VAPRRVLAADEAL [F8A]: -0.0214
